Published values collected from several papers.
Protocols differ between the studies behind these lines. ± gives the spread as reported.
Polyprotein P1234 nsP2 protease domain: Polyprotein P1234, nsP2 protease domain (Chikungunya virus, UniProt Q5XXP4)
Chain of UniProt Q5XXP4 (whole entry, looked up): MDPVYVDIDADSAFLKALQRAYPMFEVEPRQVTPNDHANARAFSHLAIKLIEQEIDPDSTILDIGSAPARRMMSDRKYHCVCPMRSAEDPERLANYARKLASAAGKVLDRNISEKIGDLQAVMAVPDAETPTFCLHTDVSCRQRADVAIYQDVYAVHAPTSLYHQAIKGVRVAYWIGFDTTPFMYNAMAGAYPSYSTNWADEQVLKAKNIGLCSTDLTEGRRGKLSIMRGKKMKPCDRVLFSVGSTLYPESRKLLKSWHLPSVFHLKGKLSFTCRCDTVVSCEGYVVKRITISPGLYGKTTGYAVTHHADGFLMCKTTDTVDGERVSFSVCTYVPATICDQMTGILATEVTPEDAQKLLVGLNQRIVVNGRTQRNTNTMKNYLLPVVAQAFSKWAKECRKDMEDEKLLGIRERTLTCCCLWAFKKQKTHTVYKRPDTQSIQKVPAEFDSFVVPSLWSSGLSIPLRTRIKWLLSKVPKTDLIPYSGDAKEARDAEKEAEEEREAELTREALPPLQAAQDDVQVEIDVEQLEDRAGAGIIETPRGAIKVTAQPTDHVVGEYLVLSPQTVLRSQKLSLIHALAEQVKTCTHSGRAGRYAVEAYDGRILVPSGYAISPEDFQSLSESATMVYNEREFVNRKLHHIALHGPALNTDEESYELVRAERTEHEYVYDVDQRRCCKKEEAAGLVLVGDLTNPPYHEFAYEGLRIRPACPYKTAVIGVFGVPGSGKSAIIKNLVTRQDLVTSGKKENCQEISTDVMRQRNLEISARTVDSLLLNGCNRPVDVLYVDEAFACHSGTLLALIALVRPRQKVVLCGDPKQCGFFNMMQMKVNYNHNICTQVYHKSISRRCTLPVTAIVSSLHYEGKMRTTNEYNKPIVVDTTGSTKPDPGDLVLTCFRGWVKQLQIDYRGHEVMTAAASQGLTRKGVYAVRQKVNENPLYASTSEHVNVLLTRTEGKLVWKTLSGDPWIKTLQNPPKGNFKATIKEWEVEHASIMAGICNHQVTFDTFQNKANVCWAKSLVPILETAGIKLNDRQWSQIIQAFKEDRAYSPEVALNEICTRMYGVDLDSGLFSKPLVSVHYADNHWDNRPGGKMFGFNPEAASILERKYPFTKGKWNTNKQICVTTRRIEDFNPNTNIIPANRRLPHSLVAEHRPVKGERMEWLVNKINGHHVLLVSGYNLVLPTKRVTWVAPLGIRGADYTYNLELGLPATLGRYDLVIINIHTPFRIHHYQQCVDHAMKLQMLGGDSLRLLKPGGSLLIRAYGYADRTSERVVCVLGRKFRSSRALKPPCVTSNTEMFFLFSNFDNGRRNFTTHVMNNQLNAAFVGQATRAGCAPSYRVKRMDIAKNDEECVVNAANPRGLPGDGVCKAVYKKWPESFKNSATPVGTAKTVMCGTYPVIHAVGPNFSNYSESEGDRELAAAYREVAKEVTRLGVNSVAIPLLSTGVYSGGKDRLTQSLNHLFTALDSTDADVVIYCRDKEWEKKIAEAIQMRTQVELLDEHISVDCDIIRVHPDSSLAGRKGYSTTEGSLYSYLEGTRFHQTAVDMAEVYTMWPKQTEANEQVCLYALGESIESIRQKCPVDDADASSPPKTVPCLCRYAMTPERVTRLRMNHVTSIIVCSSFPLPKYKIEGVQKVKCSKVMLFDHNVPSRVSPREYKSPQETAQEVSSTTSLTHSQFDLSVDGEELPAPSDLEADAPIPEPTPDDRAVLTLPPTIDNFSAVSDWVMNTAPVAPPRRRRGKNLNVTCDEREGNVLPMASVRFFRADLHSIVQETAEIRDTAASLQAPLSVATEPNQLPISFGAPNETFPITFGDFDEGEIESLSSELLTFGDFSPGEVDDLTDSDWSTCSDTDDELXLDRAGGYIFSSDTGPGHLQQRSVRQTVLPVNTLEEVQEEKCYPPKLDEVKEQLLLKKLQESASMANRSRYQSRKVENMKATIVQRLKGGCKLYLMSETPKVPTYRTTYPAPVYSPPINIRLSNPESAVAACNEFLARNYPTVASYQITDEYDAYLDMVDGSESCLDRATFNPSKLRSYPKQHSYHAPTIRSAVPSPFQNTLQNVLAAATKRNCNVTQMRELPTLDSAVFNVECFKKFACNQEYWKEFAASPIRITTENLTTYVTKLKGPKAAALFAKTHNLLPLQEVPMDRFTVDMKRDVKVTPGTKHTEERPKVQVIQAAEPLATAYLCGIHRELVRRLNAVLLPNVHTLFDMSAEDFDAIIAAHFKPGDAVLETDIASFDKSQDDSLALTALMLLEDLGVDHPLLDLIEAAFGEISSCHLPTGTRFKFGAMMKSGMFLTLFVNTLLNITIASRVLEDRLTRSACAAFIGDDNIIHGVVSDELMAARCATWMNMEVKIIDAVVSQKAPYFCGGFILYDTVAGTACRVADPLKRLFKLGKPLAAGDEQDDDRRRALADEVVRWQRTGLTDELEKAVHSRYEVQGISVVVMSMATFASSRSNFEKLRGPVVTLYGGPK
Spike glycoprotein: Spike glycoprotein (Severe acute respiratory syndrome coronavirus 2, UniProt P0DTC2)
nanI: Sialidase (nanI, Clostridium perfringens, UniProt A0A0H2YQR1)
Chain of UniProt P11712 (whole entry, looked up): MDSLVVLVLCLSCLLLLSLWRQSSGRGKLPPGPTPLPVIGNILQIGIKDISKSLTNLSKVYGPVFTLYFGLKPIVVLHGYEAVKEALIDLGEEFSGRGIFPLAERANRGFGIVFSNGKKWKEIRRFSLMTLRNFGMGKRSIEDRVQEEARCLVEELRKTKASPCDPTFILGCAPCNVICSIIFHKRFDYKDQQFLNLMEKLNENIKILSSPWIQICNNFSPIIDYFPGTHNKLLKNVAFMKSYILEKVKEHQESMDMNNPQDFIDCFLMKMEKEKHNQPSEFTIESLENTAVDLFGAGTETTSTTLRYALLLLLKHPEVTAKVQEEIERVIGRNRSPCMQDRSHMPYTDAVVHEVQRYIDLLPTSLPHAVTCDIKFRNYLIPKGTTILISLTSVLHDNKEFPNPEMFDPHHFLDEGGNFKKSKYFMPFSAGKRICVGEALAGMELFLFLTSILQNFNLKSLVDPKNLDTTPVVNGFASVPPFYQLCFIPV
Chain of UniProt P04756 (whole entry, looked up): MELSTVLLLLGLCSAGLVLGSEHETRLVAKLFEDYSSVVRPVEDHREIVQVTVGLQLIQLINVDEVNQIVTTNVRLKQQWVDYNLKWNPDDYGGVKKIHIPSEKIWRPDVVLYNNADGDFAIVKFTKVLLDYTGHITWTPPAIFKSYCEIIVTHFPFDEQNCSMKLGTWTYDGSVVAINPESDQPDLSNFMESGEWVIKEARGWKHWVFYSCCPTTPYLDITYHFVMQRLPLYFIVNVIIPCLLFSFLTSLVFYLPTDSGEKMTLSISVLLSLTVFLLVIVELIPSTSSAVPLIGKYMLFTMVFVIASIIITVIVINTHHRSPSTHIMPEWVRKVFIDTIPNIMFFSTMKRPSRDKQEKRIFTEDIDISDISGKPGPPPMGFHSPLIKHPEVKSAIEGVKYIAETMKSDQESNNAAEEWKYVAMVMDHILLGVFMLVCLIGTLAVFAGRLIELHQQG
Chain of UniProt P15423 (whole entry, looked up): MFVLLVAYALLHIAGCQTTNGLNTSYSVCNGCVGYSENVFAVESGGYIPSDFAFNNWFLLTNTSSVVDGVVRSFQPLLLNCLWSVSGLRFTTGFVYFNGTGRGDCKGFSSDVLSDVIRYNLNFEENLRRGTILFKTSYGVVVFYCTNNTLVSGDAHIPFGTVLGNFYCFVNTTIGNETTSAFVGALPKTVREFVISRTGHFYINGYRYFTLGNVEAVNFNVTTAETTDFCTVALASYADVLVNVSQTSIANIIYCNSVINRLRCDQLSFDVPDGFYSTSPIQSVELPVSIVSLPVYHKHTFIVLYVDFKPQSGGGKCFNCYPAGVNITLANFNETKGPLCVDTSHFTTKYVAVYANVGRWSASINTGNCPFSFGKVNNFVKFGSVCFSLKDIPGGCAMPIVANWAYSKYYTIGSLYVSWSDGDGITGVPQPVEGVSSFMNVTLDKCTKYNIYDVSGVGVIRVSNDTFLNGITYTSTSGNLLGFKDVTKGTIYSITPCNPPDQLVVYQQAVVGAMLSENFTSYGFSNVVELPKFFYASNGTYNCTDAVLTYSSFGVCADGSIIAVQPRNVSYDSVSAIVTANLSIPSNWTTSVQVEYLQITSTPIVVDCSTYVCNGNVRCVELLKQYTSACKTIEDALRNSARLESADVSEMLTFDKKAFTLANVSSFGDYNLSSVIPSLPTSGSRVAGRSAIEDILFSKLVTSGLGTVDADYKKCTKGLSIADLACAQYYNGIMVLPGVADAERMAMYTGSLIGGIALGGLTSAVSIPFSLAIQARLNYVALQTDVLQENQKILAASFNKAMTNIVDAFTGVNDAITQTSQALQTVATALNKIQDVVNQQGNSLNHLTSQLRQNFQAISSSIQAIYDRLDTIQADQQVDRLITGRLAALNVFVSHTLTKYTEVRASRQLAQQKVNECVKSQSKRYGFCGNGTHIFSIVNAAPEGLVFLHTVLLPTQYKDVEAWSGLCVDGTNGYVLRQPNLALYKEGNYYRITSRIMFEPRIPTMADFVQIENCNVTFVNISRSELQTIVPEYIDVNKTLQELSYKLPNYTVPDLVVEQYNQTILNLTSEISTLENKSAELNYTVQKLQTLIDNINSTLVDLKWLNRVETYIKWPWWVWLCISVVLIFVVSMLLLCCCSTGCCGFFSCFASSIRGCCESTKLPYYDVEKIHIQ
Chain of UniProt P20782 (whole entry, looked up): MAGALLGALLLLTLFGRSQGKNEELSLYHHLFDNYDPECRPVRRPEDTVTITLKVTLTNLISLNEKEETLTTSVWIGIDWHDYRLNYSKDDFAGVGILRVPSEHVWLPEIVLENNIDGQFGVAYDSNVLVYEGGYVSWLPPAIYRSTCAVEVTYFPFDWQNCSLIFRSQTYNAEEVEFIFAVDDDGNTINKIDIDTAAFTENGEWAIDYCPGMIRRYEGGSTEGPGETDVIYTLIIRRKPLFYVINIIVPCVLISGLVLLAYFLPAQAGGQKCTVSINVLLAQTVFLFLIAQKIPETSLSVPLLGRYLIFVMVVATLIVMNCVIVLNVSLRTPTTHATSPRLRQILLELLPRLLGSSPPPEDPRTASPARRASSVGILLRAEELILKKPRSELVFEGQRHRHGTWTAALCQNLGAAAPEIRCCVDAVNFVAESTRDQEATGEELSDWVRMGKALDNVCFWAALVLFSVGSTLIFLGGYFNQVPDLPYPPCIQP

| Molecule | target or system | test | test system | conditions | scale | endpoint | value |
| --- | --- | --- | --- | --- | --- | --- | --- |
| CC(C)C[C@H](NC(=O)[C@H](CO)NC(=O)[C@H](CC(C)C)NC(=O)[C@@H]1CCCN1C(=O)[C@H](CO)NC(=O)CNC(=O)[C@H](CC(C)C)NC(=O)[C@@H](N)CCCNC(=N)N)C(=O)O | HLA class I histocompatibility antigen, B alpha chain (Homo sapiens, UniProt P01889) | binding, competitor |  |  |  | IC50 | 23400 nM |
| oseltamivir carboxylate | neuraminidase (Influenza A virus, UniProt V5JG42) | enzyme activity, inhibitor | A(H9N2) | median over viruses |  | IC50 | 0.19 ± 0.02 nM |
| N#CC(=Cc1cccc2[nH]nc(C(=O)O)c12)C(=O)NC1CCCC1 | Polyprotein P1234 nsP2 protease domain | protease activity, inhibitor, FRET |  | 90 min, 30 min preincubation |  | IC50 | > 200000 nM |
| CCC(C(=O)Nc1cc(NC2CCOC2)ccc1C)n1cc(Cl)cc2nc(SCc3ccc(F)cc3)nc1-2 (centres unmarked) | Replicase polyprotein 1ab, papain-like protease (rep, Middle East respiratory syndrome-related coronavirus, UniProt K9N7C7) | enzyme activity, inhibitor |  |  |  | IC50 | > 100000 nM |
| Cc1[nH]c2ccccc2c1/C=C1/N=C(c2ccc(F)cc2)OC1=O | Replicase polyprotein 1ab, nsp13 helicase (rep, Severe acute respiratory syndrome coronavirus 2, UniProt P0DTD1) | helicase ATPase activity, inhibitor, Kinase-Glo luminescence |  |  |  | IC50 | > 150000 nM |
| O=C1Cc2cc(-c3ccco3)ccc2C(=O)N1O | Resolvase OPG149 (OPG149, Vaccinia virus, UniProt Q80HV3) |  |  |  |  | IC50 | 410 nM |
| CCCCCCCCCCCCCCCC(=O)C(F)(F)P(=O)(O)O | Glycerol-3-phosphate acyltransferase 3 (plsY3, Bacillus anthracis, UniProt Q81Y92) | inhibitor |  |  |  | IC50 | 50000 nM |
| C=CC(=O)Nc1cccc(C(C)(C)C(=O)O)c1 | Polyprotein P1234 nsP2 protease domain | protease activity, inhibitor, FRET |  | 90 min, 30 min preincubation |  | IC50 | > 200000 nM |
| CC(C)[C@H](NC(=O)[C@@H]1CCCN1C(=O)[C@H](CCC(=O)O)NC(=O)[C@H](CCC(=O)O)NC(=O)[C@H](CO)NC(=O)[C@H](CC(=O)O)NC(=O)CNC(=O)[C@@H](N)Cc1ccccc1)C(=O)N[C@H](C(=O)N[C@@H](Cc1ccc(O)cc1)C(=O)O)[C@@H](C)O | HLA class I histocompatibility antigen, A alpha chain, allele A*01:01 (Homo sapiens, UniProt P04439) | biochemical |  |  |  | IC50 | 880 nM |
| CC[C@H](C)[C@H](NC(=O)[C@H](CCC(=O)O)NC(=O)[C@H](CCCCN)NC(=O)[C@H](CC(C)C)NC(=O)[C@H](CC(=O)O)NC(=O)[C@@H](NC(=O)[C@H](Cc1ccc(O)cc1)NC(=O)[C@H](CO)NC(=O)[C@H](CCC(=O)O)NC(=O)[C@H](CCC(=O)O)NC(=O)[C@H](CC(C)C)NC(=O)[C@H](CCCCN)NC(=O)[C@H](CCCCN)NC(=O)[C@@H](NC(=O)[C@H](C)NC(=O)[C@H](CCC(=O)O)NC(=O)[C@H](CCC(=O)O)NC(=O)[C@H](CC(C)C)NC(=O)[C@H](CCCCN)NC(=O)[C@H](CCCCN)NC(=O)[C@H](CCSC)NC(=O)[C@H](CCC(=O)O)NC(=O)[C@H](Cc1ccc(O)cc1)NC(=O)[C@H](CCC(=O)O)NC(=O)[C@H](CC(C)C)NC(=O)[C@H](CC(=O)O)NC(=O)[C@H](CC(C)C)NC(=O)[C@H](Cc1ccccc1)NC(=O)[C@@H](NC(=O)[C@@H](NC(=O)[C@H](CC(N)=O)NC(=O)[C@@H](NC(=O)[C@H](CCC(N)=O)NC(=O)[C@H](CC(=O)O)NC(=O)[C@H](CC(C)C)NC(=O)[C@@H](N)CO)[C@@H](C)CC)C(C)C)[C@@H](C)O)[C@@H](C)CC)[C@@H](C)CC)C(=O)O | Spike glycoprotein (S, Human coronavirus 229E, UniProt P15423) |  |  |  |  | IC50 | 320 ± 30 nM |
| O=C1c2c(O)cccc2C([C@@H]2O[C@H](CO)[C@@H](O)[C@H](O)[C@H]2O)c2cc(CO)cc(O)c21 (some centres unmarked) | Spike glycoprotein | binding, biolayer interferometry |  |  |  | Kd | 50900 nM |
| CCOc1cc(C(=O)NCC=CS(C)(=O)=O)on1 | Polyprotein P1234 nsP2 protease domain | protease activity, inhibitor, FRET |  | 90 min, 30 min preincubation |  | IC50 | > 200000 nM |
| CCC(C(=O)Nc1cc(NC2CNC2)ccc1C)n1cc(F)cc2nc(SCc3ccc(F)cc3)nc1-2 (centres unmarked) | Replicase polyprotein 1ab, papain-like protease (rep, Middle East respiratory syndrome-related coronavirus, UniProt K9N7C7) | enzyme activity, inhibitor |  |  |  | IC50 | > 100000 nM |
| CC(C)C[C@H](NC(=O)[C@H](CCC(=O)O)NC(=O)[C@H](CS)NC(=O)[C@H](Cc1ccc(O)cc1)NC(=O)[C@H](CO)NC(=O)[C@H](CCCCN)NC(=O)[C@H](CO)NC(=O)[C@H](CCC(=O)O)NC(=O)CN)C(=O)O | HLA class I histocompatibility antigen, B alpha chain, allele B*40:01 (Homo sapiens, UniProt P01889) | biochemical |  |  |  | IC50 | 27 nM |
| CC[C@H](C)[C@H](NC(=O)[C@H](CC(C)C)NC(=O)[C@H](Cc1c[nH]c2ccccc12)NC(=O)[C@H](CCC(N)=O)NC(=O)[C@@H](NC(=O)[C@H](Cc1ccccc1)NC(=O)[C@H](C)NC(=O)[C@H](CCCCNC(=O)COCCOCCNC(=O)COCCOCCNC(=O)CC[C@H](NC(=O)CCCCCCCCCCCCCCCCCCC(=O)O)C(=O)O)NC(=O)[C@H](CCC(N)=O)NC(=O)[C@H](C)NC(=O)[C@@H](NC(=O)[C@H](CCCCN)NC(=O)[C@H](CC(=O)O)NC(=O)[C@H](CC(C)C)NC(=O)C(C)(C)NC(=O)[C@@H](NC(=O)[C@H](CO)NC(=O)[C@H](Cc1ccc(O)cc1)NC(=O)[C@H](CC(=O)O)NC(=O)[C@H](CO)NC(=O)[C@@H](NC(=O)[C@H](Cc1ccccc1)NC(=O)[C@@H](NC(=O)CNC(=O)[C@H](CCC(=O)O)NC(=O)C(C)(C)NC(=O)[C@@H](N)Cc1ccc(O)cc1)[C@@H](C)O)[C@@H](C)O)[C@@H](C)CC)[C@@H](C)CC)C(C)C)C(=O)N[C@@H](C)C(=O)NCC(=O)NCC(=O)N1CCC[C@H]1C(=O)N[C@@H](CO)C(=O)N[C@@H](CO)C(=O)NCC(=O)N[C@@H](C)C(=O)N1CCC[C@H]1C(=O)N1CCC[C@H]1C(=O)N1CCC[C@H]1C(=O)N[C@@H](CO)C(N)=O |  |  | healthy subjects | all MAD doses |  | subjects with serious adverse events | 0% |
| COc1cc2c3cc1Oc1cc(ccc1O)C[C@@H]1c4c(cc(OC)c(O)c4Oc4ccc(cc4)C[C@@H]3N(C)CC2)CC[N+]1(C)C | Chrnd/Chrna1/Chrne (Mus musculus, UniProt P02716+P04756+P20782) | endplate current peak height, inhibitor, two-electrode voltage clamp | mouse hemidiaphragm | holding potential -80 mV, after paraoxon |  | IC50 | 339 nM |
| CCC(C(=O)Nc1cc(NC2CCNCC2)ccc1C)n1cc(Br)cc2nc(SCc3ccc(F)cc3)nc1-2 (centres unmarked) | Replicase polyprotein 1ab, papain-like protease (rep, Severe acute respiratory syndrome-related coronavirus, UniProt P0C6X7) | enzyme activity |  |  |  | IC50 | 56 ± 8 nM |
| Cn1cnc(Cn2c(=O)[nH]/c(=N\c3cc4cn(C)nc4cc3Cl)n(Cc3cc(F)c(F)cc3F)c2=O)n1 |  |  | human, severe renal impairment | oral, 375 mg, treatment-related dry mouth, Moderate severity |  | patients with adverse event | 0% |

| Molecule | target or system | test | test system | conditions | scale | endpoint | value |
| --- | --- | --- | --- | --- | --- | --- | --- |
| Cn1cnc(Cn2c(=O)[nH]/c(=N\c3cc4cn(C)nc4cc3Cl)n(Cc3cc(F)c(F)cc3F)c2=O)n1 | Cytochrome P450 2C9 (CYP2C9, Homo sapiens, UniProt P11712) | inhibitor | human liver microsomes | 30 min preincubation, preincubation with NADPH, with: diclofenac 12 µM |  | IC50 | > 100000 nM |
| CNC(=O)[C@@H](NC(=O)[C@H](CC(C)C)[C@H](O)C(=O)NO)C(C)(C)C | Daboia russelii venom proteases (SVMP) | protease activity, inhibitor | MH population | 10 µM, with: azocasein substrate | baseline: venom alone | remaining activity | 0% |
| CCC(CC)[C@H](NC(C)=O)[C@@H]1[C@H](O)[C@@H](C(=O)O)C[C@H]1N=C(N)N | Neuraminidase (Influenza A virus, UniProt Q3M0T6) |  | human reference strains | mean |  | IC50 | 0.13 ± 0.01 nM |
| CCC(C(=O)Nc1cc(NC2CCOCC2)ccc1C)n1cccc2nc(SCc3ccc(F)cc3)nc1-2 (centres unmarked) | Replicase polyprotein 1ab, papain-like protease (rep, Severe acute respiratory syndrome-related coronavirus, UniProt P0C6X7) | enzyme activity |  |  |  | IC50 | 463 ± 115 nM |
| CC1(C)CC[C@]2(C(=O)O[C@@H]3O[C@H](CO)[C@@H](O)[C@H](O)[C@H]3O)CC[C@]3(C)C(=CC[C@@H]4[C@@]5(C)CC[C@H](O[C@@H]6O[C@H](C(=O)O)[C@@H](O)[C@H](O)[C@H]6O)C(C)(C)[C@@H]5CC[C@]43C)[C@@H]2C1 | Spike glycoprotein | binding, biolayer interferometry |  |  |  | Kd | 90400 nM |
| CCC(C(=O)Nc1cc(NC2CCNC2)ccc1C)n1cc(Cl)cc2nc(SCc3ccc(F)cc3)nc1-2 (centres unmarked) | Replicase polyprotein 1ab, papain-like protease (rep, Severe acute respiratory syndrome-related coronavirus, UniProt P0C6X7) | enzyme activity |  |  |  | IC50 | 109 ± 35 nM |
| O=C(N1CCC2(CC1)C[C@@H](CN1CCCCS1(=O)=O)CCO2)C1(c2ccccc2)CCCC1 | Polyprotein P1234, nsP2 (Chikungunya virus, UniProt Q8JUX6) | nsP2 ATPase activity, inhibitor, ADP-Glo |  |  |  | IC50 | > 100000 nM |
| Nc1ncnc2c([C@@H]3N[C@H](CO)[C@@H](O)[C@H]3O)c[nH]c12 | Sudan ebolavirus | viral replication | HeLa, Boniface | 100 µM |  | inhibition | 87.4% |
| CCCCCc1cc(O)c(C/C=C(\C)CCC=C(C)C)c(O)c1 | Scn10a (Mus musculus, UniProt Q6QIY3) | ion current, inhibitor, patch clamp |  |  |  | IC50 | ~5000 nM |
| CCC(C(=O)Nc1ccccc1OC)n1c(SCc2ccc(F)cc2)nc2ncccc21 (centres unmarked) | Replicase polyprotein 1ab, papain-like protease (rep, Middle East respiratory syndrome-related coronavirus, UniProt K9N7C7) | enzyme activity, inhibitor |  |  |  | IC50 | > 100000 nM |
| CCC(CC)[C@H](NC(C)=O)[C@@H]1[C@H](O)[C@@H](C(=O)O)C[C@H]1N=C(N)N | neuraminidase (Influenza A virus, UniProt G1FHY4) |  |  |  |  | IC50 | 0.85 nM |
| CC[C@H](C)[C@H](NC(=O)[C@H](CC(=O)O)NC(=O)[C@@H](N)C(C)C)C(=O)N[C@@H](CC(N)=O)C(=O)N[C@@H](CCCNC(=N)N)C(=O)N[C@@H](CC(N)=O)C(=O)N[C@@H](CC(N)=O)C(=O)N[C@@H](CCCCN)C(=O)N[C@@H](Cc1ccccc1)C(=O)O | HLA class I histocompatibility antigen, A alpha chain, allele A*23:01 (Homo sapiens, UniProt P04439) | biochemical |  |  |  | IC50 | 2260 nM |
| CCCC(C(=O)Nc1cc(NC2CCNCC2)ccc1C)n1cccc2nc(SCc3ccc(F)cc3)nc1-2 (centres unmarked) | Replicase polyprotein 1ab, papain-like protease (rep, Middle East respiratory syndrome-related coronavirus, UniProt K9N7C7) | enzyme activity, inhibitor |  |  |  | IC50 | > 100000 nM |
| CC(C)(C)CN[C@H]1[C@H]([C@H](O)[C@H](O)CO)OC(C(=O)O)=C[C@@H]1O | nanI | enzyme activity, inhibitor |  |  |  | IC50 | 24000 nM |
| N#CC(=Cc1cc(Br)c2c(c1)OCCCO2)C(N)=O | Polyprotein P1234 nsP2 protease domain | protease activity, inhibitor, FRET |  | 90 min, 30 min preincubation |  | IC50 | > 200000 nM |
| CC(C)C[C@H](NC(=O)[C@H](CO)NC(=O)[C@@H](NC(=O)[C@@H](N)Cc1ccc(O)cc1)[C@@H](C)O)C(=O)N[C@@H](CC(=O)O)C(=O)N[C@H](C(=O)N[C@@H](Cc1ccc(O)cc1)C(=O)NCC(=O)N[C@@H](CO)C(=O)O)C(C)C | HLA class I histocompatibility antigen, A alpha chain, allele A*11:01 (Homo sapiens, UniProt P04439) | biochemical |  |  |  | IC50 | 231 nM |
| CC(C)Cc1cn([C@H]2[C@H]([C@H](O)[C@H](O)CO)OC(C(=O)O)=C[C@@H]2O)nn1 | nanI | enzyme activity, inhibitor |  |  |  | IC50 | > 500000 nM |

Repeated from above:
| Molecule | target or system | test | test system | conditions | scale | endpoint | value |
| --- | --- | --- | --- | --- | --- | --- | --- |
| COc1cc2c3cc1Oc1cc(ccc1O)C[C@@H]1c4c(cc(OC)c(O)c4Oc4ccc(cc4)C[C@@H]3N(C)CC2)CC[N+]1(C)C | Chrnd/Chrna1/Chrne (Mus musculus, UniProt P02716+P04756+P20782) | endplate current peak height, inhibitor, two-electrode voltage clamp | mouse hemidiaphragm | holding potential -80 mV, after paraoxon |  | IC50 | 339 nM |
| CCC(C(=O)Nc1cc(NC2CNC2)ccc1C)n1cc(F)cc2nc(SCc3ccc(F)cc3)nc1-2 (centres unmarked) | Replicase polyprotein 1ab, papain-like protease (rep, Middle East respiratory syndrome-related coronavirus, UniProt K9N7C7) | enzyme activity, inhibitor |  |  |  | IC50 | > 100000 nM |
